# Experimental data collected from several papers.
# Every numbered part comes from another study and shows a few of its results, in no order. Positions count from the first letter of the parent shown.
# UniProt Q9Y5S2, sequence (whole entry, looked up): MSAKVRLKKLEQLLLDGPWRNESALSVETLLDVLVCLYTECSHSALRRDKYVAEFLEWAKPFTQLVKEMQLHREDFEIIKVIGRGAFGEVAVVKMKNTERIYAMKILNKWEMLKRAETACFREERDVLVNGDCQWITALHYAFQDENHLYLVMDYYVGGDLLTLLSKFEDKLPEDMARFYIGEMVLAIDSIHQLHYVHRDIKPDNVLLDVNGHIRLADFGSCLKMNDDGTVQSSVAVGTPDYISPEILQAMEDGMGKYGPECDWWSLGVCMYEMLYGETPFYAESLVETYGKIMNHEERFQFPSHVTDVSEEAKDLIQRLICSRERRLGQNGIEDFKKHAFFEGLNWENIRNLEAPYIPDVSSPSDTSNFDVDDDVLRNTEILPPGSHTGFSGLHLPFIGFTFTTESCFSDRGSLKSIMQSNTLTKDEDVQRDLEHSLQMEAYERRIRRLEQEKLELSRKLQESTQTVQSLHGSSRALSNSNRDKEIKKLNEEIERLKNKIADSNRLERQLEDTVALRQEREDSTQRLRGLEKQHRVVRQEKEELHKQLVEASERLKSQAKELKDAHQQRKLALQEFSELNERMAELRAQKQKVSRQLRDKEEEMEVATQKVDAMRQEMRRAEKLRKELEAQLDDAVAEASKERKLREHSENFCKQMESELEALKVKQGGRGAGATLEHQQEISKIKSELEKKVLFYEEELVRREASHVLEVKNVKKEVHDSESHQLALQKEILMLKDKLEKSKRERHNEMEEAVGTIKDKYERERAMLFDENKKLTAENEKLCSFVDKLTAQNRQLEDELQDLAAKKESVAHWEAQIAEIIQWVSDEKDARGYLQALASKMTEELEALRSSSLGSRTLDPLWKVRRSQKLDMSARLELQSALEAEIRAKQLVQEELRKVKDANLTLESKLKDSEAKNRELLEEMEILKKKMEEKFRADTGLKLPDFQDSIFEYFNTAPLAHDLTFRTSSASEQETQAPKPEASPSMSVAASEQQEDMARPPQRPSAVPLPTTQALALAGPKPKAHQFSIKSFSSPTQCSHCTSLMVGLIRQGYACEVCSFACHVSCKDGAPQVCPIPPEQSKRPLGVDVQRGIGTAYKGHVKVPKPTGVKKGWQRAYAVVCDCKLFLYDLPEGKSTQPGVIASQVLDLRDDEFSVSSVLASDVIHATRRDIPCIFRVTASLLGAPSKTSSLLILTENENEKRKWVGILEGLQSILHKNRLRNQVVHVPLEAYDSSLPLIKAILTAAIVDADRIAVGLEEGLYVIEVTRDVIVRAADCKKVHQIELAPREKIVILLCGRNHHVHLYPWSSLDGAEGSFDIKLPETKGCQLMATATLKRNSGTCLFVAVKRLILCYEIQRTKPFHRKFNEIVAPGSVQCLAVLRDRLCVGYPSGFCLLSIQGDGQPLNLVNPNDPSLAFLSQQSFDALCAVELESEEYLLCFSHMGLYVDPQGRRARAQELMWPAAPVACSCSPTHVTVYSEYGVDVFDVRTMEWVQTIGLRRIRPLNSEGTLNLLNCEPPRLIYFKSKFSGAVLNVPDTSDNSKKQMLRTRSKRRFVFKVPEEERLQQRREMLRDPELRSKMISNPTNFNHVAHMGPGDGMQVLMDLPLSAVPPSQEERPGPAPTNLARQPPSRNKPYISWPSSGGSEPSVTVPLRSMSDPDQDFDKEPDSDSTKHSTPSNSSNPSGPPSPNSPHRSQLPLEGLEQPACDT
# UniProt O75460, sequence (whole entry, looked up): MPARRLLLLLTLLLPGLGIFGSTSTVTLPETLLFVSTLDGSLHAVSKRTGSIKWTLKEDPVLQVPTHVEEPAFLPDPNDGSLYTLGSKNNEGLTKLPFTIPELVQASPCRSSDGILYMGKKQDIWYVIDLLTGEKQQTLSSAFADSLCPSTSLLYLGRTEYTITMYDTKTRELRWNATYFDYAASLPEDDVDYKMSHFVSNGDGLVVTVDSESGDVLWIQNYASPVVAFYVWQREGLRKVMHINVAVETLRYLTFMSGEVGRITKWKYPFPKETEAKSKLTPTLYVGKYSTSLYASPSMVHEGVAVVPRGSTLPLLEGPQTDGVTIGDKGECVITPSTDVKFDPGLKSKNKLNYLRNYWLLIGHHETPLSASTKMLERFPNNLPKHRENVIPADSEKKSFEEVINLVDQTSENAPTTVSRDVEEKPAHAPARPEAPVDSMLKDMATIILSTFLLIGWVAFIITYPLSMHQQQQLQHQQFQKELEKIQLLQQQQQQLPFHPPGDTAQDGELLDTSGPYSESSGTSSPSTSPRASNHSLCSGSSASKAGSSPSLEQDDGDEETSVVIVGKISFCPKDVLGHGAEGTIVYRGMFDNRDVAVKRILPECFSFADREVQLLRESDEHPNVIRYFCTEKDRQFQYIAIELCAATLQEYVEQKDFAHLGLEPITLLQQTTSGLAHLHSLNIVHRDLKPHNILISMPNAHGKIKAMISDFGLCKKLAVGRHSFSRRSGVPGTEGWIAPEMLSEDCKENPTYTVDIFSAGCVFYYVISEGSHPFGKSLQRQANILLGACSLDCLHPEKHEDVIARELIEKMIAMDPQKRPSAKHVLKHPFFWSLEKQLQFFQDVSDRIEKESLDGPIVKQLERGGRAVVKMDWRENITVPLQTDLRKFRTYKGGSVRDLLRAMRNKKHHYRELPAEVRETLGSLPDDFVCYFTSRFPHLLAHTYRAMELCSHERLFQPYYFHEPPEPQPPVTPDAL
# UniProt P08631, sequence (whole entry, looked up): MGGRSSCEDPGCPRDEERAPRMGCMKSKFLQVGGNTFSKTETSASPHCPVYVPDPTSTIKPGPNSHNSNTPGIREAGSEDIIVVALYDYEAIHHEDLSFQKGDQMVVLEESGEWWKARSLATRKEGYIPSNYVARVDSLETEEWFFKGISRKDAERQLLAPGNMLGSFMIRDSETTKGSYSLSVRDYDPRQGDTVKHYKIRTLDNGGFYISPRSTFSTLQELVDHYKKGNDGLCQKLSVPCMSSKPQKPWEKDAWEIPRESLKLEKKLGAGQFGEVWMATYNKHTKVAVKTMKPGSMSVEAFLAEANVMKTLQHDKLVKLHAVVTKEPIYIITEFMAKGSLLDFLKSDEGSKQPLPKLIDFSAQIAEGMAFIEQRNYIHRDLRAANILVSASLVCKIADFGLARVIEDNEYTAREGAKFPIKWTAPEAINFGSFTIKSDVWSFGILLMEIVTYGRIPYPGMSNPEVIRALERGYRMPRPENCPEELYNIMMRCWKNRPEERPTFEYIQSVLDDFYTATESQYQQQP
# UniProt Q86UX6, sequence (whole entry, looked up): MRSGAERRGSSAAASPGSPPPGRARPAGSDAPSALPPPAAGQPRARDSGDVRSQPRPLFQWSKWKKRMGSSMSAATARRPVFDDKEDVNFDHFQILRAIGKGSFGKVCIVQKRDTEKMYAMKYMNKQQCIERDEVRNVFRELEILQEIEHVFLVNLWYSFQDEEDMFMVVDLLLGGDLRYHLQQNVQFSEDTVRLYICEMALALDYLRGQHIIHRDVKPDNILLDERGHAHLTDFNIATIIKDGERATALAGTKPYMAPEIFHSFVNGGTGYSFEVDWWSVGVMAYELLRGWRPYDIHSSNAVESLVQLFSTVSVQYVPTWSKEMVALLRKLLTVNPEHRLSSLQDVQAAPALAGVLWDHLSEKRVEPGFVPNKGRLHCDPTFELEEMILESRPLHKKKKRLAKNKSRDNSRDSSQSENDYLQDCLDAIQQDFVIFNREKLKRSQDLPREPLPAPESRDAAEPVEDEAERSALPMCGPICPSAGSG
# UniProt Q7KZI7, sequence (whole entry, looked up): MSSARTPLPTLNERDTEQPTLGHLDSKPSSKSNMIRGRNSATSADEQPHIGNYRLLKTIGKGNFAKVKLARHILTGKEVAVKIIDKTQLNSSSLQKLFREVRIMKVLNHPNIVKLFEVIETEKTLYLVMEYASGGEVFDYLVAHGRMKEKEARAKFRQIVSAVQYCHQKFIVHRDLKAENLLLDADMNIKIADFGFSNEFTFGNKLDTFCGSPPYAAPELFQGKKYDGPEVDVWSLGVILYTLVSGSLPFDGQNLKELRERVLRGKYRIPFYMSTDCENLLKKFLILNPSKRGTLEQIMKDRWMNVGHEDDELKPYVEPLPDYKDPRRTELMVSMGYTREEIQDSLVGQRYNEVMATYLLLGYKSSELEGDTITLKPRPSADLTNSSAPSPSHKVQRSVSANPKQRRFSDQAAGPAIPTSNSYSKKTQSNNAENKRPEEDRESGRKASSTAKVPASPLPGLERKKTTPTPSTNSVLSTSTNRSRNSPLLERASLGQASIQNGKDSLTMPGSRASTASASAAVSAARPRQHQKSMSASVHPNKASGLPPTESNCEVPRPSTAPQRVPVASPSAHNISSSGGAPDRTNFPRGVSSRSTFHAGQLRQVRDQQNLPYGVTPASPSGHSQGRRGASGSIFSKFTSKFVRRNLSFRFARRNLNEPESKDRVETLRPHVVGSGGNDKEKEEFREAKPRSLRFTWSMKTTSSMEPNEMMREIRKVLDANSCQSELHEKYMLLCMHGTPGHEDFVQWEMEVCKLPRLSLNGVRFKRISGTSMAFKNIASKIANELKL

# Set 1
# SMILES: Cc1cc2ncc(-c3ccccc3)nc2cc1C
# Effect on: enzyme activity
# Action: inhibitor
# Concentration: 0.5 µM
# Reference: control
target,remaining activity [%]
"MAP2K1 (Homo sapiens, UniProt Q02750)",98
"MET (Homo sapiens, UniProt P08581)",95.1
"DDR2 (Homo sapiens, UniProt Q16832)",95.7
"MARK4 (Homo sapiens, UniProt Q96L34)",105
"MARK2 (Homo sapiens, UniProt Q7KZI7)",84.5
"GRK4 (Homo sapiens, UniProt P32298)",94.8
"PLK3 (Homo sapiens, UniProt Q9H4B4)",90.1
"CLK4 (Homo sapiens, UniProt Q9HAZ1)",96
"MAPK1 (Homo sapiens, UniProt P28482)",88
"NEK3 (Homo sapiens, UniProt P51956)",93.7
"CAMK4 (Homo sapiens, UniProt Q16566)",98.3
"CDC42BPB (Homo sapiens, UniProt Q9Y5S2)",101
"TXK (Homo sapiens, UniProt P42681)",99.5

# Set 2
# SMILES: CN(C)C(=O)Cn1cc(-c2nc([C@@](C)(c3ccc(-c4cnc(N)nc4)cc3)C3CC3)no2)cn1
# Effect on: cell-free assay
# Technique: competition with immobilised ligand
# Concentration: 1 µM
target,remaining binding [%]
"CDC42BPB (Homo sapiens, UniProt Q9Y5S2)",99
"GSK3B (Homo sapiens, UniProt P49841)",100
"HCK (Homo sapiens, UniProt P08631)",79
"STK32C (Homo sapiens, UniProt Q86UX6)",88
"ERN1 (Homo sapiens, UniProt O75460)",86
"STK36 (Homo sapiens, UniProt Q9NRP7)",79

# Set 3
# Target: ABI1, truncated, D143A, DHFR fusion (Arabidopsis thaliana, UniProt P49597)
# Technique: DHFR PCA, dose-response
# Sample: yeast
# Setting: Hill fit, not affinity
# Together with: (+)-ABA, dose series
# Direction: lower = more sensitive
# Starting sequence: PYL1, truncated, DHFR fusion (Arabidopsis thaliana, UniProt Q8VZS8); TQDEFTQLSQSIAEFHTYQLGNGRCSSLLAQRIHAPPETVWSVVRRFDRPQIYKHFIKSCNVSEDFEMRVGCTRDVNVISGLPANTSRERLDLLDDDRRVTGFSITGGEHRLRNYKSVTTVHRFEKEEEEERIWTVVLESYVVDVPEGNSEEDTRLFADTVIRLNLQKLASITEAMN
Variant,ABA EC50
E131H,2.82 µM
R132G,0.993 µM
M68L,1.17 µM
R132D,0.361 µM
C60F,2340 µM
Q2M,6.5 µM
D95G,1360 µM
T6K,6.24 µM

# Other studies, line by line
Molecule,target,assay,test system,setting,scale,quantity,value
"PhoQ, residues 284 288 289 292 302 303 SLSLLA","PhoP, residues 12 14 15 18 19 TQAIL (Escherichia coli, UniProt P23836)","Sort-seq, item: YFP reporter",E. coli,"PhoQ-PhoP variant library, together with: 10 µM Mg2+","reference: high Mg2+ state, higher = stronger signaling",fold induction,55.1

# Repeated from above (set 1):
target,remaining activity [%]
"PLK3 (Homo sapiens, UniProt Q9H4B4)",90.1
"CLK4 (Homo sapiens, UniProt Q9HAZ1)",96
"MAPK1 (Homo sapiens, UniProt P28482)",88
